{"data": "Assay results gathered from unrelated publications", "note": "A part holds a random share of what one study measured. Several values in a cell are separate wells, animals, samples, runs or records.", "UniProt Q15418, sequence (whole entry, looked up)": "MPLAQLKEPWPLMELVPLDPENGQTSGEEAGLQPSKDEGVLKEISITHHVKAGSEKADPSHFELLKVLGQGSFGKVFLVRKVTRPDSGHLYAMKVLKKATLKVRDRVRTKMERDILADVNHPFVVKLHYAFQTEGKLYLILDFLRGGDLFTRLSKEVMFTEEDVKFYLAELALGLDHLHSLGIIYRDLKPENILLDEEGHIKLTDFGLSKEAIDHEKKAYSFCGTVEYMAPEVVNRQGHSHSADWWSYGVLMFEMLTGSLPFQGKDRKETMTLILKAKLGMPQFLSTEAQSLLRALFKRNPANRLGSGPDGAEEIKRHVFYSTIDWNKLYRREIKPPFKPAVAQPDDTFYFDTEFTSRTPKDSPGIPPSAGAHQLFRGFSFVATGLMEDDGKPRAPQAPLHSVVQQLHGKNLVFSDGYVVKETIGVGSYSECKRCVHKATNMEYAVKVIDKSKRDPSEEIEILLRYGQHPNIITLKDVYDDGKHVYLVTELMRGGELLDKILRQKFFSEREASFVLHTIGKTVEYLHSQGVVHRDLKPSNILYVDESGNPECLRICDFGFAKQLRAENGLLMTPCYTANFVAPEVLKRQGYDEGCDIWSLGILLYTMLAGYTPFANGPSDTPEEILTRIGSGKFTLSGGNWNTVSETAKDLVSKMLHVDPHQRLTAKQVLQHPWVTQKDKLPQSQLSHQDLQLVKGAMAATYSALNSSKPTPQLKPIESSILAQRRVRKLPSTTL", "UniProt P35626, sequence (whole entry, looked up)": "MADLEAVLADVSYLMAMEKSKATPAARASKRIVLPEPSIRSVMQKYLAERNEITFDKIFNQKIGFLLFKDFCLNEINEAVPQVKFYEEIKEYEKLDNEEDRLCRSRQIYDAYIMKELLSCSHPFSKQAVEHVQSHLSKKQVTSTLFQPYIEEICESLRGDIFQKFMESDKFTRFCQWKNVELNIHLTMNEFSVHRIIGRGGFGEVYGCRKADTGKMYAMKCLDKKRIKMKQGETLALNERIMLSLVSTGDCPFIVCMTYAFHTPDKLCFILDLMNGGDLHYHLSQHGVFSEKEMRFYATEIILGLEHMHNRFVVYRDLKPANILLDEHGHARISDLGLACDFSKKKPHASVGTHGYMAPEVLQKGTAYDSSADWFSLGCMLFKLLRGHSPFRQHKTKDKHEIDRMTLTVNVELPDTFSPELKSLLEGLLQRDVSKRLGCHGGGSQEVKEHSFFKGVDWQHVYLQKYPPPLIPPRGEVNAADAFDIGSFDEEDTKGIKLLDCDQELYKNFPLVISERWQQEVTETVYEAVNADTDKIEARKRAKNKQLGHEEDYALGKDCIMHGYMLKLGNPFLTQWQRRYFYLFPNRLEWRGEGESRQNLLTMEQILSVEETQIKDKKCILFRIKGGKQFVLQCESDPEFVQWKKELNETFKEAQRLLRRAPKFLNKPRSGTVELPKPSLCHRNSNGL", "UniProt P00519, sequence (whole entry, unmodified, looked up)": "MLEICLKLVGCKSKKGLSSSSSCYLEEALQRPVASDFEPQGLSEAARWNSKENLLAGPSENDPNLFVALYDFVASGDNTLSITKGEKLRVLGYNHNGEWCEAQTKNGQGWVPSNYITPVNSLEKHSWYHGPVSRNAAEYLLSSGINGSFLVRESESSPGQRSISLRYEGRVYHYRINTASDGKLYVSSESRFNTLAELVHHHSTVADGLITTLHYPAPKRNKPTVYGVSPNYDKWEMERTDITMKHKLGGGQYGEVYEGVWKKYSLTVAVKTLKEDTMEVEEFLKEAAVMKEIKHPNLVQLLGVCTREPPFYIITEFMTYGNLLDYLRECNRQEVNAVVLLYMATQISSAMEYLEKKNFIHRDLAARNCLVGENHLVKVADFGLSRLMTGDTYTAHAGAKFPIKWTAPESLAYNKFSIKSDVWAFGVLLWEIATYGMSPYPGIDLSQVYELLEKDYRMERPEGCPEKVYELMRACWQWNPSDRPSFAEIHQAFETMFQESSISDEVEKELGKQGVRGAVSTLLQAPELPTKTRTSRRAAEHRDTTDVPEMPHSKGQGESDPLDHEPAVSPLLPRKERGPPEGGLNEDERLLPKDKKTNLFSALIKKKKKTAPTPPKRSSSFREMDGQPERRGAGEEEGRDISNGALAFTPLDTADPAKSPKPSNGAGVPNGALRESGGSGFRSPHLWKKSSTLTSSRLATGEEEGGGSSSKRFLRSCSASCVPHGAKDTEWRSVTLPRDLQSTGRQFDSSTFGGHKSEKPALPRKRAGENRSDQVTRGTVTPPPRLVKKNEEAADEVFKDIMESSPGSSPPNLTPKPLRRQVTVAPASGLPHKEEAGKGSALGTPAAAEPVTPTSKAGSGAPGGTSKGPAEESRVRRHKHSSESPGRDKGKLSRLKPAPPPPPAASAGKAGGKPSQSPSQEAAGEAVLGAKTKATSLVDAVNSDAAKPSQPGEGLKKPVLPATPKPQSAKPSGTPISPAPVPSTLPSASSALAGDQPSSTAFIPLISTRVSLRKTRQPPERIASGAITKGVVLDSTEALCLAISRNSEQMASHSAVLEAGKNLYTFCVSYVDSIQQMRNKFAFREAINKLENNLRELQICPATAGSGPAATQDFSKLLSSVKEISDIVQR", "UniProt Q9UHD2, sequence (whole entry, looked up)": "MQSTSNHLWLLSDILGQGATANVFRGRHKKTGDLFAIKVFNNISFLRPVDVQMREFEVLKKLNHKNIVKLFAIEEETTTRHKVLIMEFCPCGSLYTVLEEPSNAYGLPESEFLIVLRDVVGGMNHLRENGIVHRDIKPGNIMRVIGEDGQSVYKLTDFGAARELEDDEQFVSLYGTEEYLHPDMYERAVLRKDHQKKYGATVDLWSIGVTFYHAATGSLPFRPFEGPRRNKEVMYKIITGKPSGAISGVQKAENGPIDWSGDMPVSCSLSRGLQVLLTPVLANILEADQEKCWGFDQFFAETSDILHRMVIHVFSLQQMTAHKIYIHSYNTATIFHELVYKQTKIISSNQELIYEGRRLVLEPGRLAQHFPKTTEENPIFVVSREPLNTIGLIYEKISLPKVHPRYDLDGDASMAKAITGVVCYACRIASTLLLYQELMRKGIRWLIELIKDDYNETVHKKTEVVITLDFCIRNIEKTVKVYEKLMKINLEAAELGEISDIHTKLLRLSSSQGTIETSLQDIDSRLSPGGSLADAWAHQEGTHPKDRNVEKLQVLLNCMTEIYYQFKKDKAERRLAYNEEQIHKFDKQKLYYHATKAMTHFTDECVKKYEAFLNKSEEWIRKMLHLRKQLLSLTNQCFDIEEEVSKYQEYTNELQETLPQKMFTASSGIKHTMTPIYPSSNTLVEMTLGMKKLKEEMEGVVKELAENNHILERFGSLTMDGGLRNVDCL", "UniProt O95747, sequence (whole entry, looked up)": "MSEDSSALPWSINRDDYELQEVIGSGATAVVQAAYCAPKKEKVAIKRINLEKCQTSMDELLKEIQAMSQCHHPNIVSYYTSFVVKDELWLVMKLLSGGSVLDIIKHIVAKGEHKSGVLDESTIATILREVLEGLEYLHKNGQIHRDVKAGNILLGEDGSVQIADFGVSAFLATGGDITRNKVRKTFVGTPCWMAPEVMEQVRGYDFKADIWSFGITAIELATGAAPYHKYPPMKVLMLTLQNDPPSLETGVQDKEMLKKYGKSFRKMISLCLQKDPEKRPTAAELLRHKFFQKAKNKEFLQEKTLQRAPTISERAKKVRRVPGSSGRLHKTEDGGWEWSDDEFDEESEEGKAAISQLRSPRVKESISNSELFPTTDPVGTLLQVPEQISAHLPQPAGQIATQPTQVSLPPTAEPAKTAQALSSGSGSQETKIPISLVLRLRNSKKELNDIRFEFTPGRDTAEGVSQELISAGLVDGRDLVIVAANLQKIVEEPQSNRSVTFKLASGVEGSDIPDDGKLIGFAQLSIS", "UniProt Q9UIK4, sequence (whole entry, looked up)": "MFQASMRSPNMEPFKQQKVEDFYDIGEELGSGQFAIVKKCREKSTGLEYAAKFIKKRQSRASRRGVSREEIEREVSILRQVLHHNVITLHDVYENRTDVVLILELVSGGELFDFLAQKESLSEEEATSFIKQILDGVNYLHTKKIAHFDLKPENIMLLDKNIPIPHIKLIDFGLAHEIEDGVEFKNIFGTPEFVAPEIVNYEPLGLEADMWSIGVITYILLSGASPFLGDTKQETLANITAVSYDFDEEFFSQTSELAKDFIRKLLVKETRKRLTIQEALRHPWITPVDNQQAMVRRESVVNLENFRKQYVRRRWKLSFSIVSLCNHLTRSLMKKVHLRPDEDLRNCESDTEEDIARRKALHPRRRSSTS", "UniProt Q04771, sequence (whole entry, looked up)": "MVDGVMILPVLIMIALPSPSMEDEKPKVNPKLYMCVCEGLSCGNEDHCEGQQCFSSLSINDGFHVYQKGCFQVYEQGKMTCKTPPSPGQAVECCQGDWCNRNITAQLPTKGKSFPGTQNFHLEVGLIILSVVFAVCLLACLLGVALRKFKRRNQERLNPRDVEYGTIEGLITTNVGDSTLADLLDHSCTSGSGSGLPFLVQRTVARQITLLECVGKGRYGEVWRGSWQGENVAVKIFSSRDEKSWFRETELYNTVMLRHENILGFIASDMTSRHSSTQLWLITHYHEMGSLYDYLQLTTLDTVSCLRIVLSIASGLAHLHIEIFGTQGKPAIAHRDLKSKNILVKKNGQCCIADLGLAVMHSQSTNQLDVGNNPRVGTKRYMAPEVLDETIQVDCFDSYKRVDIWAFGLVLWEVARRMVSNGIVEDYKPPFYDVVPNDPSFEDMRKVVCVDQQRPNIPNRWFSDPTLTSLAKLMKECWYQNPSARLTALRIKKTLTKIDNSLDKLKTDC", "UniProt Q00535, sequence (whole entry, looked up)": "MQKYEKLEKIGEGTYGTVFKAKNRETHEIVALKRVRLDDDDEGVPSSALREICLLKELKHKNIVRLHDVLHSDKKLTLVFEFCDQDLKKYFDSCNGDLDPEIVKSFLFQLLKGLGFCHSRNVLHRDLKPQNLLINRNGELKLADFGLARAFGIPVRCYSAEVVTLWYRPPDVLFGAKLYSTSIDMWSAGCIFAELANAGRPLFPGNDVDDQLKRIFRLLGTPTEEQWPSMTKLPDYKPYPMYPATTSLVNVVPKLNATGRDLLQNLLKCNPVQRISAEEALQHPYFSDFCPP"}
{"data": "Set 1", "cell line": "HaCaT", "tested at": "100 µM", "time": "36 h"}
{"SMILES": "COc1cc2nccc(Oc3ccc(NC(=O)C4(C(=O)Nc5ccc(F)cc5)CC4)cc3)c2cc1OC", "viability": "52.4% and 25.1%"}
{"SMILES": "CS(=O)(=O)c1ccc(C(=O)Nc2ccc(Cl)c(-c3ccccn3)c2)c(Cl)c1", "viability": "46.5%"}
{"SMILES": "O[C@H]1[C@H](O)[C@@H](O)[C@H](O)[C@@H](O)[C@H]1O", "viability": "82.4%"}
{"SMILES": "O=C(CCCl)NCc1ccccc1", "viability": "89.5%"}
{"SMILES": "COc1ccc(CN(CCN(C)C)c2ccccn2)cc1", "viability": "94.4%"}
{"SMILES": "COc1cc(S(=O)(=O)O)ccc1O", "viability": "94.1%"}
{"SMILES": "Nc1nc(Cl)nc2c1ncn2[C@H]1C[C@H](O)[C@@H](CO)O1", "viability": "34.3%"}
{"SMILES": "Cn1cnc([N+](=O)[O-])c1Sc1ncnc2nc[nH]c12", "viability": "48%"}
{"SMILES": "COc1ccnc(C[S+]([O-])c2nc3cc(-n4cccc4)ccc3[nH]2)c1C (stereo not shown)", "viability": "13.7%"}
{"SMILES": "CN1C2=CC(=O)/C(=N\\NC(N)=O)C=C2CC1S(=O)(=O)O (stereo not shown)", "viability": "87.2%"}
{"SMILES": "O=C(O)c1ccc[n+]([O-])c1", "viability": "85.4%"}
{"SMILES": "C[C@@H](O)[C@H]1C(=O)N2C(C(=O)O)=C(SCCN=CN)C[C@H]12", "viability": "96.8%"}
{"SMILES": "O=c1cc[nH]c(=O)[nH]1", "viability": "92.2%"}
{"SMILES": "COC(=O)C1=C(C)NC(C)=C(C(=O)O[C@@H]2CCCN(Cc3ccccc3)C2)[C@@H]1c1cccc([N+](=O)[O-])c1 (racemic)", "viability": "22.5%"}
{"SMILES": "Cn1c(=O)c2c(ncn2CC(=O)O)n(C)c1=O", "viability": "94.3%"}
{"SMILES": "c1ccc2c(CC3=NCCN3)cccc2c1", "viability": "33.4%"}
{"data": "Set 2", "target": "WD repeat-containing protein 5 (WDR5, Homo sapiens, UniProt P61964)", "technique": "SPR"}
{"SMILES": "C[C@@H]1CN(c2ccc(-c3cc(C(=O)NCCCNC(=O)/C=C/c4[nH]cc(C(=O)N[C@@H](CC(N)=O)c5ccc(F)c(Cl)c5)c4-c4ccc(Cl)cc4F)ccc3F)cc2NC(=O)c2c[nH]c(=O)cc2C(F)(F)F)C[C@H](C)N1C", "dissociation rate constant": "0.0016 s⁻¹"}
{"SMILES": "C[C@@H]1CN(c2ccc(-c3cc(C(=O)NCCOCCOCCOCCOCCNC(=O)/C=C/c4[nH]cc(C(=O)N[C@@H](CC(N)=O)c5ccc(F)c(Cl)c5)c4-c4ccc(Cl)cc4F)ccc3F)cc2NC(=O)c2c[nH]c(=O)cc2C(F)(F)F)C[C@H](C)N1C", "dissociation rate constant": "0.0012 s⁻¹"}
{"SMILES": "C[C@@H]1CN(c2ccc(-c3cc(C(=O)NCCOCCOCCOCCOCCOCCOCCNC(=O)/C=C/c4[nH]cc(C(=O)N[C@@H](CC(N)=O)c5ccc(F)c(Cl)c5)c4-c4ccc(Cl)cc4F)ccc3F)cc2NC(=O)c2ccc(F)cc2C(F)(F)F)C[C@H](C)N1C", "dissociation rate constant": "0.0045 s⁻¹"}
{"data": "Set 3", "Compound": "Cc1ccc(NC2=CC(=O)c3sc(C)nc3C2=O)cc1", "effect on": "enzyme activity", "mode": "inhibitor", "tested at": "0.5 µM", "reference": "control"}
{"target": "Serine/threonine-protein kinase Nek2 (NEK2, Homo sapiens, UniProt P51955)", "remaining activity": "96.4%"}
{"target": "cAMP-dependent protein kinase catalytic subunit alpha (PRKACA, Homo sapiens, UniProt P17612)", "remaining activity": "95.9%"}
{"target": "Calcium/calmodulin-dependent protein kinase type II subunit delta (CAMK2D, Homo sapiens, UniProt Q13557)", "remaining activity": "93.2%"}
{"target": "cGMP-dependent protein kinase 1, isoform beta (PRKG1, Homo sapiens, UniProt Q13976)", "remaining activity": "96.3%"}
{"target": "Cyclin-dependent kinase 4, with cyclin D1 (CDK4, Homo sapiens, UniProt P11802)", "remaining activity": "92%"}
{"target": "STE20/SPS1-related proline-alanine-rich protein kinase (STK39, Homo sapiens, UniProt Q9UEW8)", "remaining activity": "93.4%"}
{"target": "Cyclin-dependent kinase 5, with p25 (CDK5, Homo sapiens, UniProt Q00535)", "remaining activity": "61.9%"}
{"target": "Mitogen-activated protein kinase kinase kinase 3 (MAP3K3, Homo sapiens, UniProt Q99759)", "remaining activity": "120%"}
{"target": "Inhibitor of nuclear factor kappa-B kinase subunit epsilon (IKBKE, Homo sapiens, UniProt Q14164)", "remaining activity": "102%"}
{"target": "Protein kinase C alpha type (PRKCA, Homo sapiens, UniProt P17252)", "remaining activity": "100%"}
{"target": "Inhibitor of nuclear factor kappa-B kinase subunit beta (IKBKB, Homo sapiens, UniProt O14920)", "remaining activity": "97.3%"}
{"target": "Tyrosine-protein kinase Lyn, isoform B (LYN, Homo sapiens, UniProt P07948)", "remaining activity": "95.4%"}
{"target": "TGF-beta receptor type-1 (TGFBR1, Homo sapiens, UniProt P36897)", "remaining activity": "94.8%"}
{"target": "Serine/threonine-protein kinase OSR1 (OXSR1, Homo sapiens, UniProt O95747)", "remaining activity": "86.6%"}
{"target": "Death-associated protein kinase 1 (DAPK1, Homo sapiens, UniProt P53355)", "remaining activity": "105%"}
{"target": "TGF-beta receptor type-2 (TGFBR2, Homo sapiens, UniProt P37173)", "remaining activity": "77.6%"}
{"target": "G protein-coupled receptor kinase 3 (GRK3, Homo sapiens, UniProt P35626)", "remaining activity": "84.5%"}
{"target": "Serine/threonine-protein kinase 10 (STK10, Homo sapiens, UniProt O94804)", "remaining activity": "95%"}
{"target": "Death-associated protein kinase 2 (DAPK2, Homo sapiens, UniProt Q9UIK4)", "remaining activity": "91.9%"}
{"target": "Mitogen-activated protein kinase 9 (MAPK9, Homo sapiens, UniProt P45984)", "remaining activity": "96.5%"}
{"target": "Serine/threonine-protein kinase STK11 (STK11, Homo sapiens, UniProt Q15831)", "remaining activity": "85.6%"}
{"target": "Protein kinase C beta type, isoform beta-I (PRKCB, Homo sapiens, UniProt P05771)", "remaining activity": "95.7%"}
{"target": "Serine/threonine-protein kinase Chk2 (CHEK2, Homo sapiens, UniProt O96017)", "remaining activity": "100%"}
{"data": "Set 4", "SMILES": "N#Cc1ccc(Nc2ccc3[nH]c(=O)[nH]c3c2)c(Cl)c1", "effect on": "cell-free assay", "technique": "competition with immobilised ligand", "tested at": "1 µM"}
{"target": "Proto-oncogene tyrosine-protein kinase receptor Ret (RET, Homo sapiens, UniProt P07949, V804L)", "remaining binding [%]": 100}
{"target": "Ribosomal protein S6 kinase alpha-1, C-terminal kinase domain (RPS6KA1, Homo sapiens, UniProt Q15418)", "remaining binding [%]": 100}
{"target": "Interleukin-1 receptor-associated kinase 1 (IRAK1, Homo sapiens, UniProt P51617)", "remaining binding [%]": 100}
{"target": "Microtubule-associated serine/threonine-protein kinase 1 (MAST1, Homo sapiens, UniProt Q9Y2H9)", "remaining binding [%]": 100}
{"target": "NUAK family SNF1-like kinase 2 (NUAK2, Homo sapiens, UniProt Q9H093)", "remaining binding [%]": 100}
{"target": "Mitogen-activated protein kinase kinase kinase kinase 4 (MAP4K4, Homo sapiens, UniProt O95819)", "remaining binding [%]": 77}
{"target": "Ribosomal protein S6 kinase alpha-1, N-terminal kinase domain (RPS6KA1, Homo sapiens, UniProt Q15418)", "remaining binding [%]": 93}
{"target": "5'-AMP-activated protein kinase catalytic subunit alpha-2 (PRKAA2, Homo sapiens, UniProt P54646)", "remaining binding [%]": 81}
{"target": "G protein-coupled receptor kinase 3 (GRK3, Homo sapiens, UniProt P35626)", "remaining binding [%]": 100}
{"target": "Dual specificity protein kinase CLK3 (CLK3, Homo sapiens, UniProt P49761)", "remaining binding [%]": 96}
{"target": "Tyrosine-protein kinase receptor Tie-1 (TIE1, Homo sapiens, UniProt P35590)", "remaining binding [%]": 91}
{"target": "Non-receptor tyrosine-protein kinase TYK2, JH2 (TYK2, Homo sapiens, UniProt P29597)", "remaining binding [%]": 100}
{"target": "3-phosphoinositide-dependent protein kinase 1 (PDPK1, Homo sapiens, UniProt O15530)", "remaining binding [%]": 97}
{"target": "Atypical kinase COQ8B, mitochondrial (COQ8B, Homo sapiens, UniProt Q96D53)", "remaining binding [%]": 100}
{"target": "Mitogen-activated protein kinase kinase kinase 13 (MAP3K13, Homo sapiens, UniProt O43283)", "remaining binding [%]": 100}
{"target": "G protein-coupled receptor kinase 4 (GRK4, Homo sapiens, UniProt P32298)", "remaining binding [%]": 100}
{"target": "Activin receptor type-1 (ACVR1, Homo sapiens, UniProt Q04771)", "remaining binding [%]": 89}
{"target": "Tyrosine-protein kinase ABL1, phosphorylated (ABL1, Homo sapiens, UniProt P00519, F317L)", "remaining binding [%]": 84}
{"target": "Mitogen-activated protein kinase kinase kinase 2 (MAP3K2, Homo sapiens, UniProt Q9Y2U5)", "remaining binding [%]": 100}
{"target": "Rhodopsin kinase GRK7 (GRK7, Homo sapiens, UniProt Q8WTQ7)", "remaining binding [%]": 100}
{"target": "High affinity nerve growth factor receptor (NTRK1, Homo sapiens, UniProt P04629)", "remaining binding [%]": 93}
{"target": "Hormonally up-regulated neu tumor-associated kinase (HUNK, Homo sapiens, UniProt P57058)", "remaining binding [%]": 98}
{"target": "Serine/threonine-protein kinase TAO2 (TAOK2, Homo sapiens, UniProt Q9UL54)", "remaining binding [%]": 100}
{"target": "Testis-specific serine/threonine-protein kinase 3 (TSSK3, Homo sapiens, UniProt Q96PN8)", "remaining binding [%]": 100}
{"target": "Serine/threonine-protein kinase TBK1 (TBK1, Homo sapiens, UniProt Q9UHD2)", "remaining binding [%]": 100}
{"note": "Some of these lines once more (set 3):"}
{"target": "Inhibitor of nuclear factor kappa-B kinase subunit beta (IKBKB, Homo sapiens, UniProt O14920)", "remaining activity": "97.3%"}
{"target": "Protein kinase C beta type, isoform beta-I (PRKCB, Homo sapiens, UniProt P05771)", "remaining activity": "95.7%"}
{"target": "Protein kinase C alpha type (PRKCA, Homo sapiens, UniProt P17252)", "remaining activity": "100%"}
{"target": "TGF-beta receptor type-2 (TGFBR2, Homo sapiens, UniProt P37173)", "remaining activity": "77.6%"}
{"target": "Tyrosine-protein kinase Lyn, isoform B (LYN, Homo sapiens, UniProt P07948)", "remaining activity": "95.4%"}
{"target": "Serine/threonine-protein kinase Chk2 (CHEK2, Homo sapiens, UniProt O96017)", "remaining activity": "100%"}
{"target": "STE20/SPS1-related proline-alanine-rich protein kinase (STK39, Homo sapiens, UniProt Q9UEW8)", "remaining activity": "93.4%"}
{"target": "Mitogen-activated protein kinase kinase kinase 3 (MAP3K3, Homo sapiens, UniProt Q99759)", "remaining activity": "120%"}
{"target": "Calcium/calmodulin-dependent protein kinase type II subunit delta (CAMK2D, Homo sapiens, UniProt Q13557)", "remaining activity": "93.2%"}
{"target": "Inhibitor of nuclear factor kappa-B kinase subunit epsilon (IKBKE, Homo sapiens, UniProt Q14164)", "remaining activity": "102%"}
{"target": "G protein-coupled receptor kinase 3 (GRK3, Homo sapiens, UniProt P35626)", "remaining activity": "84.5%"}
